{"data": "Measured values from different studies", "note": "A part holds a random share of what one study measured.", "sequence of UniProt P08912 (whole entry, looked up)": "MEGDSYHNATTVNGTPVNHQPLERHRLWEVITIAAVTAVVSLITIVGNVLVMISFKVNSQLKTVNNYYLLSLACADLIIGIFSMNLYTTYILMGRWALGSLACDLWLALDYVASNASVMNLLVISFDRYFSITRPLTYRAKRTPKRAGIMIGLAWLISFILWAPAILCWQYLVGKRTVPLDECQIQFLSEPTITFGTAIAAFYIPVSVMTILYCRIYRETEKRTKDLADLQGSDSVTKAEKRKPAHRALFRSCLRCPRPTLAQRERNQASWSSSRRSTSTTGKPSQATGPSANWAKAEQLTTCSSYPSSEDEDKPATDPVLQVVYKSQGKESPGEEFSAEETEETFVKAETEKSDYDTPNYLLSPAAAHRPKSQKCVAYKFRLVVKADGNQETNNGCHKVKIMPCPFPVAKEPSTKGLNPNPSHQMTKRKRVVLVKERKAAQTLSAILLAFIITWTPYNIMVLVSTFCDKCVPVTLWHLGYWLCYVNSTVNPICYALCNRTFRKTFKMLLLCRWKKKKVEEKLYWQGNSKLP", "sequence of UniProt P9WI81 (whole entry, looked up)": "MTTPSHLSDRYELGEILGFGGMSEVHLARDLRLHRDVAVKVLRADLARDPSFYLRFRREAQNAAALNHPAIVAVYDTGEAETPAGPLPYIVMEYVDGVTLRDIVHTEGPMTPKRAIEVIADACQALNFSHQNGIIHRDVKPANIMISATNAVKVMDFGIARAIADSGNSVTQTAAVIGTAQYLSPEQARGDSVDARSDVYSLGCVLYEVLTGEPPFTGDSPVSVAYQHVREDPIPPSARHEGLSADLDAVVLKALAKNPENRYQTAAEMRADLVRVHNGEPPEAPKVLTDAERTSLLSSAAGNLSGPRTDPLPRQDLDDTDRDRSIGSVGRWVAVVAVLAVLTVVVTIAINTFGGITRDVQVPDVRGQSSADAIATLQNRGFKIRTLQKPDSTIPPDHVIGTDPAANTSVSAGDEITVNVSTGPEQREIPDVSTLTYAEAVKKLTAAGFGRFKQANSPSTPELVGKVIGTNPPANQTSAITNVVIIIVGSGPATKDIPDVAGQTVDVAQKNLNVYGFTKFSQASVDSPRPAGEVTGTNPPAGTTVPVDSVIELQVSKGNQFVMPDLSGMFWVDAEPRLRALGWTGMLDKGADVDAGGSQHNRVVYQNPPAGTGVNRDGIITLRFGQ"}
{"data": "Block 1", "cell line": "HEK-293T", "organism": "VSV pseudotyped with VSV-G", "concentration": "10 µM", "time": "16 h"}
{"Structure (SMILES)": "CN1CCCCC1CCN1c2ccccc2Sc2ccc([S+](C)[O-])cc21 (stereo not shown)", "pseudovirus infection [%]": 125}
{"Structure (SMILES)": "Cc1ncc(C[n+]2csc(CCO)c2C)c(N)n1", "pseudovirus infection [%]": 88.5}
{"Structure (SMILES)": "CC(C)CN(C[C@@H](O)[C@H](Cc1ccccc1)NC(=O)O[C@H]1CO[C@H]2OCC[C@H]21)S(=O)(=O)c1ccc(N)cc1", "pseudovirus infection [%]": 108}
{"Structure (SMILES)": "Cc1cnc(C(=O)NCCc2ccc(S(=O)(=O)NC(=O)NC3CCCCC3)cc2)cn1", "pseudovirus infection [%]": 103}
{"data": "Mixed results", "HTR2C": "5-hydroxytryptamine receptor 2C (HTR2C, Homo sapiens, UniProt P28335)", "sequence of UniProt P28335 (whole entry, looked up)": "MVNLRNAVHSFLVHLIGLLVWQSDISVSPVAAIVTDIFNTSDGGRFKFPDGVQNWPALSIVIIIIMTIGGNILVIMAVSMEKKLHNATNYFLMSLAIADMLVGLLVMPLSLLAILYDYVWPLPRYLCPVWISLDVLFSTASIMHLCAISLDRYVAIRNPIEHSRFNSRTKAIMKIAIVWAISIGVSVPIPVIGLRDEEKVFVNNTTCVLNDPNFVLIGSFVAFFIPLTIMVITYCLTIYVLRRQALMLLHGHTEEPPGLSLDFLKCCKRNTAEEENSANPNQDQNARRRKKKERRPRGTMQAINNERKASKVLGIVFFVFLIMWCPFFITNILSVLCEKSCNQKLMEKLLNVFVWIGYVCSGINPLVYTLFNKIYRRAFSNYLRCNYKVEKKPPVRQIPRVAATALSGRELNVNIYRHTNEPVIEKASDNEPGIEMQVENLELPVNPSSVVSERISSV"}
{"Compound": "CC(C)(O)c1cncc(-c2nc3ccc(F)cc3n2C2CC2)c1", "target or system": "HTR2C", "assay": "binding, radioligand binding", "endpoint": "Ki", "result": "> 10 µM"}
{"Compound": "O=C1CCC(N2Cc3c(ccc4c3OCC43CCN(Cc4ccccc4)CC3)C2=O)C(=O)N1 (stereo not shown)", "test system": "Caco-2", "setting": "10 µM, 2 h", "endpoint": "Papp B→A", "result": "20.8 ×10⁻⁶ cm/s"}
{"Compound": "Cc1c(N2CCNCC2)nc2ccc(Br)cc2c1C(=O)NC[C@H](CCC(=O)O)c1ccccc1Cl", "target or system": "Muscarinic acetylcholine receptor M5 (CHRM5, Homo sapiens, UniProt P08912)", "assay": "ligand displacement", "setting": "10 µM", "endpoint": "inhibition", "result": "-0.13%"}
{"Compound": "COc1ccc(-c2c(Nc3ccccn3)[nH]c3c(C4=CCCCC4)c(-c4ccccc4)nn3c2=O)cc1", "test system": "patients with advanced malignancies", "setting": "oral, dose not given, treatment-emergent adverse events", "endpoint": "AST increased incidence", "result": "15%"}
{"Compound": "CC1=C(C#N)[C@@H](c2ccc3[nH]nc(C)c3c2)C(C#N)=C(c2ccc(Cl)cc2)N1", "target or system": "HTR2C", "assay": "binding, radioligand binding", "endpoint": "Ki", "result": "> 10 µM"}
{"Compound": "CSc1cccnc1N1CCN(Cc2nc3ccccc3[nH]2)CC1", "target or system": "Serine/threonine-protein kinase PknB (pknB, Mycobacterium tuberculosis, UniProt P9WI81)", "assay": "cell-free assay, competition with immobilised ligand", "setting": "1 µM", "endpoint": "remaining binding", "result": "87%"}
{"note": "Repeated from above (mixed results):"}
{"Compound": "CC1=C(C#N)[C@@H](c2ccc3[nH]nc(C)c3c2)C(C#N)=C(c2ccc(Cl)cc2)N1", "target or system": "HTR2C", "assay": "binding, radioligand binding", "endpoint": "Ki", "result": "> 10 µM"}
